{"data": "Published values pooled from the literature", "note": "Compare with care: the assays were run in different laboratories. Numbers after ± are the reported error."}
{"Molecule": "CC(C)CCOP(=O)(O)Oc1c2c(c(OP(=O)(O)OCCC(C)C)c3c1C1CC3c3cc4c(cc31)C1CC4c3ccccc31)C1CC2c2cc3c(cc21)C1CC3c2ccccc21", "assay": "liposome dye leakage", "test system": "liposomes 200 nm", "setting": "30 min, added: carboxyfluorescein 50 mM", "endpoint": "EC50", "value": "4.4 µM"}
{"Molecule": "CSCCNC(=O)CCC(C)C1CCC2C3C(O)CC4CC(O)CCC4(C)C3CCC12C (centres unmarked)", "assay": "refers to: Shp", "test system": "SPF mice, ileum", "setting": "oral gavage, dose not given", "how to read": "reference: vehicle", "endpoint": "mRNA level", "value": "decreased"}
{"Molecule": "O=C(O)/C=C/c1ccc(O)cc1", "setting": "1000 µg/mL", "endpoint": "ABTS radical scavenging", "value": "84.4 ± 1%"}
{"Molecule": "COc1ccc([N+](=O)[O-])cc1NC(=O)CCC(=O)[O][Zn][O]C(=O)CCC(=O)Nc1cc([N+](=O)[O-])ccc1OC.c1ccncc1", "assay": "ABTS", "setting": "62.5 µg/mL", "endpoint": "ABTS radical scavenging", "value": "65.24 ± 0.38%"}
{"Molecule": "somatostatin", "test system": "Sprague-Dawley rat, streptozotocin-induced diabetes, retina", "setting": "eye drops, 10 mg/mL, score 5", "endpoint": "GFAP-positive glial activation", "value": "0%"}
{"Molecule": "O=C(O)CCCC(=O)O", "setting": "125 µg/mL", "endpoint": "ABTS radical scavenging", "value": "55.1 ± 2.51%"}
{"Molecule": "CC[C@H](C)[C@H](NC(=O)[C@H](CCCNC(=N)N)NC(=O)[C@H](CCC(N)=O)NC(=O)[C@H](CC(=O)O)NC(=O)[C@H](CC(C)C)NC(=O)[C@H](CC(C)C)NC(=O)[C@H](CC(N)=O)NC(=O)[C@H](Cc1ccccc1)NC(=O)[C@H](CC(=O)O)NC(=O)[C@@H](NC(=O)[C@@H](NC(=O)[C@H](CC(N)=O)NC(=O)CNC(=O)[C@H](CO)NC(C)=O)C(C)C)[C@@H](C)CC)C(=O)N[C@H](C(=O)N[C@@H](Cc1c[nH]c2ccccc12)C(=O)N[C@@H](CCC(N)=O)C(=O)N[C@@H](CC(N)=O)C(=O)N[C@@H](Cc1c[nH]c2ccccc12)C(=O)N[C@@H](Cc1ccc(O)cc1)C(=O)N[C@@H](C)C(N)=O)[C@@H](C)CC", "assay": "refers to: HA-19 tetramer", "test system": "tetramer+ CD4 T cells, PBMC, healthy adults, HLA-DRB1*0101", "setting": "dose not given, CD62L−CD45RA+/− or CD62L+CD45RA−", "endpoint": "antigen-experienced T cells", "value": "48.1%"}
{"Molecule": "O=c1c(O)c(-c2cc(O)ccc2O)oc2cc(O)cc(O)c12", "setting": "62.5 µg/mL", "endpoint": "ABTS radical scavenging", "value": "49.7 ± 1.06%"}
{"Molecule": "N[C@@H](Cc1ccc(O)cc1)C(=O)N1CCC[C@H]1C(=O)NCC(=O)NCC(=O)O", "assay": "diketopiperazine formation, transition state theory", "test system": "1-propanol", "setting": "concentration not given, 70, 80, 90 °C, 0.5% acetic acid", "endpoint": "enthalpy of activation", "value": "17.9 ± 3.59 kcal/mol"}
{"Molecule": "CSCC[C@H](NC(=O)CNC(=O)[C@H](CC(=O)O)NC(=O)[C@@H](NC(=O)[C@@H](NC(=O)[C@@H](NC(=O)CNC(=O)[C@H](CCC(N)=O)NC(=O)[C@H](CCSC)NC(=O)[C@H](CC(=O)O)NC(=O)[C@H](C)NC(=O)[C@H](C)NC(=O)[C@@H](NC(=O)[C@H](CO)NC(=O)[C@@H](N)CC(C)C)[C@@H](C)O)C(C)C)C(C)C)[C@@H](C)O)C(=O)N[C@@H](C)C(=O)N[C@@H](CO)C(=O)NCC(=O)N[C@@H](CC(C)C)C(=O)N[C@@H](CC(=O)O)C(=O)N[C@@H](CCCCN)C(=O)N[C@@H](CC(=O)O)C(=O)N[C@@H](Cc1ccc(O)cc1)C(=O)N[C@@H](CC(C)C)C(=O)N[C@@H](CCCCN)C(=O)N1CCC[C@H]1C(=O)N[C@@H](CC(=O)O)C(=O)N[C@@H](CC(=O)O)C(=O)O", "test system": "p53-positive advanced solid tumour patients", "setting": "dose not given, seven patients", "endpoint": "stable disease duration", "value": "7 to 61 weeks"}
{"Molecule": "Cc1ccc2c(n1)c(-c1cccc(S(C)(=O)=O)c1)c(C)n2C/C(F)=C/CN", "assay": "refers to: pyridinoline", "test system": "male C57BL/6J mice myocardial infarction, heart", "setting": "oral, 14 mg/kg daily, 28 days", "how to read": "reference: vehicle", "endpoint": "mature collagen crosslinks", "value": "decreased"}
{"Molecule": "CC[C@H](C)[C@H](NC(=O)[C@H](CCC(=O)O)NC(=O)CNC(=O)[C@@H](NC(=O)[C@H](CC(C)C)NC(=O)[C@H](CC(C)C)NC(=O)[C@H](CC(C)C)NC(=O)[C@H](CC(C)C)NC(=O)[C@H](CS)NC(=O)[C@H](CO)NC(=O)[C@H](Cc1ccccc1)NC(=O)CNC(=O)[C@H](CCCNC(=N)N)NC(=O)[C@@H]1CCCN1C(=O)[C@H](C)NC(=O)[C@H](CCSC)NC(=O)CNC(=O)CNC(=O)[C@H](Cc1ccccc1)NC(=O)[C@H](CCCCN)NC(=O)[C@H](Cc1c(C)cc(O)cc1C)NC(=O)[C@H](N)CCCNC(=N)N)[C@@H](C)O)C(=O)N[C@@H](CC(=O)O)C(=O)N[C@@H](CC(C)C)C(=O)N1CCC[C@H]1C(=O)N[C@H](C(=O)N[C@@H](CCCCN)C(=O)N[C@@H](CCCNC(=N)N)C(=O)N[C@@H](CCCNC(=N)N)C(=O)N[C@@H](C)C(N)=O)C(C)C", "assay": "H&E staining", "test system": "female transgenic AD mice, hippocampal dentate gyrus", "setting": "iv, 88.4 nmol/kg/day, 28 days", "endpoint": "pyknotic neuron area", "value": "decreased"}
{"Molecule": "Cc1ccc(/C=C/C(=O)O)cc1-c1cc2c(cc1C)C(C)(C)CCC2(C)C", "assay": "RNA sequencing, refers to: Cav1 mRNA", "test system": "rat, brain", "setting": "dose not given, 24 h, single dose", "how to read": "reference: vehicle", "endpoint": "log2 fold change", "value": 0.62}
{"Molecule": "COc1cc2c(cc1OC)C(=O)C(=Cc1ccc(N3CC[N+](C)(C)CC3)cc1)C2", "assay": "western blot", "test system": "Wistar rat, amyloid beta-induced Alzheimer model, hippocampus", "setting": "oral, dose not given, 21 days", "endpoint": "NF-kB protein level", "value": "decreased"}
{"Molecule": "C[C@H]1[C@H]2CCC[C@]1(c1cccc(O)c1)CCN2CCc1ccccc1", "test system": "ICR mice, male and female", "setting": "dose not given, added: naltrexone 1.0 mg/kg sc 10 min before", "endpoint": "locomotor activity", "value": "decreased"}
{"Molecule": "CCc1nnc(-c2c(OC)cc(-c3cnc4cc(-c5cnn(C)c5)ccn34)cc2OC)o1", "assay": "RT-qPCR, refers to: Spp1", "test system": "male C57BL/6J mice, cortical bone", "setting": "oral gavage, dose not given, 3 weeks", "endpoint": "mRNA level", "value": "increased"}
{"Molecule": "CC[C@H](C)[C@H](NC(=O)[C@@H](NC(=O)[C@H](CC(=O)O)NC(C)=O)[C@@H](C)O)C(=O)N[C@@H](CCCNC(=N)N)C(=O)N[C@@H](CC(C)C)C(=O)N[C@@H](CC(C)C)C(=O)N[C@@H](Cc1ccccc1)C(=O)N[C@@H](CCC(N)=O)C(=O)N[C@@H](CC(C)C)C(=O)N[C@@H](CCSC)C(=O)N[C@@H](CCCNC(=N)N)C(=O)N1CCC[C@H]1C(=O)N1CCC[C@H]1C(=O)N[C@@H](CC(N)=O)C(=O)N[C@@H](CCSC)C(=O)N[C@H](C(=O)N1CCC[C@H]1C(=O)N[C@@H](C)C(=O)N[C@H](C(=O)N[C@@H](CC(N)=O)C(=O)N[C@@H](C)C(N)=O)C(C)C)[C@@H](C)O", "assay": "refers to: HA-15 tetramer", "test system": "tetramer+ CD4 T cells, PBMC, healthy adults, HLA-DRB1*0101", "setting": "dose not given, CD62L−CD45RA+/− or CD62L+CD45RA−", "endpoint": "antigen-experienced T cells", "value": "63.2%"}
{"Molecule": "CCN(Cc1ccccc1)C(=O)CCc1nc(CN2CCN(C(=O)Cc3ccc(OC)c(OC)c3)CC2)no1", "assay": "current clamp", "test system": "L4-L6 DRG neurons, rat CCI model", "setting": "1 µM", "endpoint": "rheobase", "value": "375 ± 41.2 pA"}
{"Molecule": "CCN(CCCCOc1ccc(CCC(=O)N2CCC(Cc3ccccc3)CC2)cc1OC)Cc1ccccc1", "assay": "step-down passive avoidance", "test system": "scopolamine-induced amnesic mice", "setting": "13.0 mg/kg", "endpoint": "step-down latency", "value": "170 s"}
{"Molecule": "CCCCCCCCCCCCCCCC(=O)N[C@@H](CCC(=O)NCCOCCOCCC(=O)NCCOCCOCCC(=O)NCCCC[C@H](NC(=O)[C@H](CC(=O)O)NC(=O)[C@H](CC(C)C)NC(=O)[C@H](Cc1ccc(O)cc1)NC(=O)[C@H](CCCCN)NC(=O)[C@H](CO)NC(=O)[C@H](Cc1ccc(O)cc1)NC(=O)[C@H](CC(=O)O)NC(=O)[C@H](CO)NC(=O)[C@@H](NC(=O)[C@H](Cc1ccccc1)NC(=O)[C@@H](NC(=O)CNC(=O)[C@H](CCC(N)=O)NC(=O)[C@@H](CO)NC(=O)[C@@H](N)Cc1c[nH]cn1)[C@@H](C)O)[C@@H](C)O)C(=O)N[C@@H](CCCNC(=N)N)C(=O)N[C@@H](CCCNC(=N)N)C(=O)N[C@@H](C)C(=O)N[C@@H](CCC(N)=O)C(=O)N[C@@H](CC(=O)O)C(=O)N[C@@H](Cc1ccccc1)C(=O)N[C@H](C(=O)N[C@@H](CCC(N)=O)C(=O)N[C@@H](Cc1c[nH]c2ccccc12)C(=O)N[C@@H](CC(C)C)C(=O)N[C@@H](CC(C)C)C(=O)N[C@@H](CC(N)=O)C(=O)N[C@H](C(=O)NCC(=O)NCC(=O)N1CCC[C@H]1C(=O)N[C@@H](CO)C(=O)N[C@@H](CO)C(=O)NCC(=O)N[C@@H](C)C(=O)N1CCC[C@H]1C(=O)N1CCC[C@H]1C(=O)N1CCC[C@H]1C(=O)N[C@@H](CO)C(N)=O)[C@@H](C)O)C(C)C)C(=O)O", "assay": "histology", "test system": "C57BL/6J mouse CCl4 model", "setting": "60 µg/kg, 6 weeks", "endpoint": "liver inflammation and fibrosis", "value": "decreased"}
{"Molecule": "C#CCCCOP(=O)(O)Oc1c2c(c(OP(=O)(O)OCCCC#C)c3c1C1CC3c3cc4c(cc31)C1CC4c3ccccc31)C1CC2c2cc3c(cc21)C1CC3c2ccccc21", "assay": "liposome dye leakage", "test system": "liposomes 200 nm", "setting": "30 min, added: carboxyfluorescein 50 mM", "endpoint": "EC50", "value": "43.4 µM"}
{"Molecule": "CCCCCCCC/C=C\\CCCCCCCCOP(O)(O)=S.N", "test system": "C57BL/6 mouse", "setting": "subcutaneous, 1 mg/kg, 24 h after irradiation, LD50/10 endpoint, added: 6.4-8.6 Gy total-body irradiation", "endpoint": "dose modification factor", "value": 1.2}
{"Molecule": "CC[C@H](C)[C@H](NC(=O)[C@H](CCCNC(=N)N)NC(=O)[C@H](CCCNC(=N)N)NC(=O)[C@H](CC(C)C)NC(=O)[C@H](Cc1ccccc1)NC(=O)CNC(=O)CNC(=O)[C@@H](N)Cc1ccc(O)cc1)C(=O)N[C@@H](CCCNC(=N)N)C(=O)N1CCC[C@H]1C(=O)N[C@@H](CCCCN)C(=O)N[C@@H](CC(C)C)C(=O)N[C@@H](CCCCN)C(=O)N[C@@H](Cc1c[nH]c2ccccc12)C(=O)N[C@@H](CC(=O)O)C(=O)N[C@@H](CC(N)=O)C(=O)N[C@@H](CCC(N)=O)C(=O)O", "test system": "C57BL/6 mouse striatal membranes", "setting": "concentration not given", "how to read": "reference: basal", "endpoint": "stimulation", "value": "3.1 ± 0.1 fold"}
{"note": "For quick reference, copied from above:"}
{"Molecule": "C#CCCCOP(=O)(O)Oc1c2c(c(OP(=O)(O)OCCCC#C)c3c1C1CC3c3cc4c(cc31)C1CC4c3ccccc31)C1CC2c2cc3c(cc21)C1CC3c2ccccc21", "assay": "liposome dye leakage", "test system": "liposomes 200 nm", "setting": "30 min, added: carboxyfluorescein 50 mM", "endpoint": "EC50", "value": "43.4 µM"}
{"Molecule": "CC[C@H](C)[C@H](NC(=O)[C@H](CCC(=O)O)NC(=O)CNC(=O)[C@@H](NC(=O)[C@H](CC(C)C)NC(=O)[C@H](CC(C)C)NC(=O)[C@H](CC(C)C)NC(=O)[C@H](CC(C)C)NC(=O)[C@H](CS)NC(=O)[C@H](CO)NC(=O)[C@H](Cc1ccccc1)NC(=O)CNC(=O)[C@H](CCCNC(=N)N)NC(=O)[C@@H]1CCCN1C(=O)[C@H](C)NC(=O)[C@H](CCSC)NC(=O)CNC(=O)CNC(=O)[C@H](Cc1ccccc1)NC(=O)[C@H](CCCCN)NC(=O)[C@H](Cc1c(C)cc(O)cc1C)NC(=O)[C@H](N)CCCNC(=N)N)[C@@H](C)O)C(=O)N[C@@H](CC(=O)O)C(=O)N[C@@H](CC(C)C)C(=O)N1CCC[C@H]1C(=O)N[C@H](C(=O)N[C@@H](CCCCN)C(=O)N[C@@H](CCCNC(=N)N)C(=O)N[C@@H](CCCNC(=N)N)C(=O)N[C@@H](C)C(N)=O)C(C)C", "assay": "H&E staining", "test system": "female transgenic AD mice, hippocampal dentate gyrus", "setting": "iv, 88.4 nmol/kg/day, 28 days", "endpoint": "pyknotic neuron area", "value": "decreased"}
{"Molecule": "N[C@@H](Cc1ccc(O)cc1)C(=O)N1CCC[C@H]1C(=O)NCC(=O)NCC(=O)O", "assay": "diketopiperazine formation, transition state theory", "test system": "1-propanol", "setting": "concentration not given, 70, 80, 90 °C, 0.5% acetic acid", "endpoint": "enthalpy of activation", "value": "17.9 ± 3.59 kcal/mol"}
